{"data": "Experimental data pooled from the literature", "note": "Numbered parts are unrelated; each lists some results of a single study.", "UniProt P42336, sequence (whole entry, unmodified, looked up)": "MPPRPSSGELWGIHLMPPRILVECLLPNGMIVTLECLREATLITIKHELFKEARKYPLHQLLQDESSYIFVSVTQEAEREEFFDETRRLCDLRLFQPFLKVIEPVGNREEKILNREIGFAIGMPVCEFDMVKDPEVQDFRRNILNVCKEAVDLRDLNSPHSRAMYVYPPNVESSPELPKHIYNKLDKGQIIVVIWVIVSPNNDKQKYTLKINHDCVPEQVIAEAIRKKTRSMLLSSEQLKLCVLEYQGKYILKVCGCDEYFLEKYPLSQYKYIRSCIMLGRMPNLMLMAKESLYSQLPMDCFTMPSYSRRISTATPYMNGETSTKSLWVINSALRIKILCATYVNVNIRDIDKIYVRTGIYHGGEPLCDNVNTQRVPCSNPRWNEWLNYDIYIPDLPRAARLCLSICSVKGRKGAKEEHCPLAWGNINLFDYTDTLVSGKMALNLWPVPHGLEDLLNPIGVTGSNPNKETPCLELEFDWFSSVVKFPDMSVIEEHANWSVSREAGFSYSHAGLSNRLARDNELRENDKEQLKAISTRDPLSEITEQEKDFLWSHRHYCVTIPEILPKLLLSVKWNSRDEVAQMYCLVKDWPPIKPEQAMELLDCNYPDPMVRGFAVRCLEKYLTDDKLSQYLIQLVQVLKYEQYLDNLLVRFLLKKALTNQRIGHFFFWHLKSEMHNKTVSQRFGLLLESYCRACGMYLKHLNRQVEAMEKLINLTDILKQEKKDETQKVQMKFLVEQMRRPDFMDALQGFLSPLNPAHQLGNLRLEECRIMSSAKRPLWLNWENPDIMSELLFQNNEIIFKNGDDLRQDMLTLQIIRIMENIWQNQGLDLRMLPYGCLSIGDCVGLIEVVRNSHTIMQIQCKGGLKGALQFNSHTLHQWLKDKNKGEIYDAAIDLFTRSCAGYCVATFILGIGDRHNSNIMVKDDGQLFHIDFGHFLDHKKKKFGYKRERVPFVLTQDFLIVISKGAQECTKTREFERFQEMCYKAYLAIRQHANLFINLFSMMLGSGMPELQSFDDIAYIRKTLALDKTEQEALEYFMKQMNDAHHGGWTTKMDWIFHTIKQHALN", "UniProt P10721, sequence (whole entry, unmodified, looked up)": "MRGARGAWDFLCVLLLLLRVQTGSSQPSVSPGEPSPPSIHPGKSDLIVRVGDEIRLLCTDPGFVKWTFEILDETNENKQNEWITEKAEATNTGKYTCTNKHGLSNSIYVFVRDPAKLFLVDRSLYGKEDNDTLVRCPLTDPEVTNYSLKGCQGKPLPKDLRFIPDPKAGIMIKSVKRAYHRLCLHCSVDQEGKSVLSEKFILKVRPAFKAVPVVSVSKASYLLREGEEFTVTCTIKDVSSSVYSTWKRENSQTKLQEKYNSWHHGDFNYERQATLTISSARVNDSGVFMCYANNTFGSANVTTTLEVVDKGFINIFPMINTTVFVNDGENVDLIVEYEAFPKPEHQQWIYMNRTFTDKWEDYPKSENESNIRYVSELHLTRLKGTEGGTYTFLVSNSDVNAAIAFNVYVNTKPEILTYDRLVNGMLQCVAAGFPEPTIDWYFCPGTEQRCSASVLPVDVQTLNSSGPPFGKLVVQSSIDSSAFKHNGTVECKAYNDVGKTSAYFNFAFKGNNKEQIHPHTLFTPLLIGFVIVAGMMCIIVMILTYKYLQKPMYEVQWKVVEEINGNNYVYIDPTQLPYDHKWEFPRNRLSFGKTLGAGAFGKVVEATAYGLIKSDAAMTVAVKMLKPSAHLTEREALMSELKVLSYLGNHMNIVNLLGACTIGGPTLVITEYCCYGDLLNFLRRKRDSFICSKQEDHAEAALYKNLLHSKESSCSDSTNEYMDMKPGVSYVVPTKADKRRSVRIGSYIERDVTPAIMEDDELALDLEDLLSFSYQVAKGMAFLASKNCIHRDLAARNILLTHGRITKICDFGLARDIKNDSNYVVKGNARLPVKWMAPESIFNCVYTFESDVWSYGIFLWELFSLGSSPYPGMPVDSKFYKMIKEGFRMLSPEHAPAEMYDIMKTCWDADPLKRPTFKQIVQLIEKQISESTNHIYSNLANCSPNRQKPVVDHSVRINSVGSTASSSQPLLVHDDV", "UniProt P22607, sequence (whole entry, unmodified, looked up)": "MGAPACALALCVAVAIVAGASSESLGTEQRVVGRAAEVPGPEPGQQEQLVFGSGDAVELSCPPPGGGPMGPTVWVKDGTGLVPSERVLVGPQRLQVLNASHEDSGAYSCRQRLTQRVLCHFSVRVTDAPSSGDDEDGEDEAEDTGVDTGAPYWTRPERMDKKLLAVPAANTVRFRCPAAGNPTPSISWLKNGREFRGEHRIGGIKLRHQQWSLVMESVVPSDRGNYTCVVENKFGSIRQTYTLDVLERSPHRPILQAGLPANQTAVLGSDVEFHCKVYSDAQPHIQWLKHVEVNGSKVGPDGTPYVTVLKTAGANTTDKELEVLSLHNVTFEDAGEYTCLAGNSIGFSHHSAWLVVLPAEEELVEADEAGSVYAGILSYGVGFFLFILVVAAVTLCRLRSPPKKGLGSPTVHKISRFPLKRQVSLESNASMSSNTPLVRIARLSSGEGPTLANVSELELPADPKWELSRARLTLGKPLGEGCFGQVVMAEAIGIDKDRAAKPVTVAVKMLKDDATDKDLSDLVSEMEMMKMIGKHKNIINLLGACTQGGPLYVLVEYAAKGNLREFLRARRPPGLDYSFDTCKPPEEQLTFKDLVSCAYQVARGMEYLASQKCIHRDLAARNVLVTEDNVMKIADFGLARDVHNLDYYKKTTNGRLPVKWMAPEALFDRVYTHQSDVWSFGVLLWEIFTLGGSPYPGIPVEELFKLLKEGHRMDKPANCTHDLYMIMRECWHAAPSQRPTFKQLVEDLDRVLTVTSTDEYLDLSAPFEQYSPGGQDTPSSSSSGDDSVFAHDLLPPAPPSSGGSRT", "UniProt P53779, sequence (whole entry, looked up)": "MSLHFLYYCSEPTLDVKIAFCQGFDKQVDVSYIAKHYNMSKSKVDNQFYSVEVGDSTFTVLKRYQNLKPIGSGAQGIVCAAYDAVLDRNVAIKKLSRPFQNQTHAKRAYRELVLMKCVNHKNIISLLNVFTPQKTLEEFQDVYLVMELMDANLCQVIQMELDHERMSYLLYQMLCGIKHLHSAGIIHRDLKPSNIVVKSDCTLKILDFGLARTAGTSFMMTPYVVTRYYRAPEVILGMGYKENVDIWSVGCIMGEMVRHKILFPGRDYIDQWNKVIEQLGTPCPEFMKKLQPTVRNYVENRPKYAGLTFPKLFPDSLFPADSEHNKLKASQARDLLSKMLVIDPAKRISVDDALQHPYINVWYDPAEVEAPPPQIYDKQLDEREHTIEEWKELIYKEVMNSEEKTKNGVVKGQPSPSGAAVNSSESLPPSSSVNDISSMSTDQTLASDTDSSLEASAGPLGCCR", "UniProt P36896, sequence (whole entry, looked up)": "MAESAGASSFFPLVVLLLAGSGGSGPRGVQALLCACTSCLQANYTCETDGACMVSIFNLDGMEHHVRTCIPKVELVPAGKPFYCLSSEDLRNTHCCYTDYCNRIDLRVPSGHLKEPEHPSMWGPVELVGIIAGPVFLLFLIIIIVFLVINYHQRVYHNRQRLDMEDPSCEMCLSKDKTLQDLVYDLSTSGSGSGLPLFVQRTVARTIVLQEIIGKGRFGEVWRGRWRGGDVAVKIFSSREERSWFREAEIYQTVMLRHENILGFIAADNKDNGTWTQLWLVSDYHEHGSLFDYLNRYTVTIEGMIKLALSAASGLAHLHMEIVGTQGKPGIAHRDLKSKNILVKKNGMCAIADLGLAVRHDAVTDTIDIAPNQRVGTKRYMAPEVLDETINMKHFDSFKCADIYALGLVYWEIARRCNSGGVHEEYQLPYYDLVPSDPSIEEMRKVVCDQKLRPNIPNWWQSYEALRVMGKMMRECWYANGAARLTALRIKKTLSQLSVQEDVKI", "UniProt Q8WTQ7, sequence (whole entry, looked up)": "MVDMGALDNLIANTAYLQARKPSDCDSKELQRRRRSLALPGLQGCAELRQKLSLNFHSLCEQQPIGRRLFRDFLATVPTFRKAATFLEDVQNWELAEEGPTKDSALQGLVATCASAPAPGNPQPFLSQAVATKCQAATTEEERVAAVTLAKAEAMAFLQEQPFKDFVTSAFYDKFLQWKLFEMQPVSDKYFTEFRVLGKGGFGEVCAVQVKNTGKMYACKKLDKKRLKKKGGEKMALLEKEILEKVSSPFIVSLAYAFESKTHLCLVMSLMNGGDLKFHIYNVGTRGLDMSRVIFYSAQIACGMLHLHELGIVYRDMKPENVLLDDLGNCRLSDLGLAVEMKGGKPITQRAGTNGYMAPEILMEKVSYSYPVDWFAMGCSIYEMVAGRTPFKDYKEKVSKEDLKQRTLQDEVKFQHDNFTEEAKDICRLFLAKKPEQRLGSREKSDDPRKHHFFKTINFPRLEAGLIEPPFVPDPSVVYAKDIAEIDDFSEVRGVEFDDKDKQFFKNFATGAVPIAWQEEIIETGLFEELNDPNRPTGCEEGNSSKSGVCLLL", "UniProt O14965, sequence (whole entry, looked up)": "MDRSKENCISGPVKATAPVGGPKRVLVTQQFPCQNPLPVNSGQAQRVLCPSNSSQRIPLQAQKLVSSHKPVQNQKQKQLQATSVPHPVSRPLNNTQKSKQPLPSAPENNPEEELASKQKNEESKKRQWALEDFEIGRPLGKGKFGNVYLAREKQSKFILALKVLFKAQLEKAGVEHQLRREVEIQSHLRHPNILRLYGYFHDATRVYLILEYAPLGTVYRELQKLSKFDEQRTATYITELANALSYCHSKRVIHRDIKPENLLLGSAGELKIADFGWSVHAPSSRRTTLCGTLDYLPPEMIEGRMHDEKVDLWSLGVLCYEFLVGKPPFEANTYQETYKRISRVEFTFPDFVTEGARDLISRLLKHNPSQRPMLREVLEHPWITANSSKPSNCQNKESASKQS"}
{"data": "Study 1", "Structure (SMILES)": "CS(=O)(=O)c1cc(C2(NC(=O)c3cncc4c3cnn4-c3ccc(F)cc3)CC2)ccn1", "observed": "cell-free assay", "technique": "competition with immobilised ligand", "tested at": "1 µM"}
{"target": "Tyrosine-protein kinase ABL1, phosphorylated (ABL1, Homo sapiens, UniProt P00519)", "remaining binding [%]": 71}
{"target": "Serine/threonine-protein kinase D1 (PRKD1, Homo sapiens, UniProt Q15139)", "remaining binding [%]": 100}
{"target": "Serine/threonine-protein kinase 16 (STK16, Homo sapiens, UniProt O75716)", "remaining binding [%]": 93}
{"target": "Non-receptor tyrosine-protein kinase TYK2, JH1 (TYK2, Homo sapiens, UniProt P29597)", "remaining binding [%]": 73}
{"target": "Phosphatidylinositol 4,5-bisphosphate 3-kinase catalytic subunit alpha isoform (PIK3CA, Homo sapiens, UniProt P42336, E542K)", "remaining binding [%]": 80}
{"target": "Mast/stem cell growth factor receptor Kit (KIT, Homo sapiens, UniProt P10721, D816H)", "remaining binding [%]": 49}
{"data": "Study 2", "SMILES": "C[C@H]1CC[C@H](n2c3cnccc3c3cnc(Nc4ccc5c(n4)CCN(C(=O)CO)C5)nc32)CC1", "observed": "cell-free assay", "tested at": "1 µM"}
{"target": "Fibroblast growth factor receptor 3 (FGFR3, Homo sapiens, UniProt P22607, G697C)", "remaining signal": "76%"}
{"target": "Epidermal growth factor receptor (EGFR, Homo sapiens, UniProt P00533, del752-759)", "remaining signal": "84%"}
{"target": "Phosphatidylinositol 4,5-bisphosphate 3-kinase catalytic subunit alpha isoform (PIK3CA, Homo sapiens, UniProt P42336, H1047Y)", "remaining signal": "100%"}
{"target": "Serine/threonine-protein kinase Chk2 (CHEK2, Homo sapiens, UniProt O96017)", "remaining signal": "91%"}
{"target": "Mast/stem cell growth factor receptor Kit (KIT, Homo sapiens, UniProt P10721, T670I/V559D)", "remaining signal": "53%"}
{"target": "MAP/microtubule affinity-regulating kinase 4 (MARK4, Homo sapiens, UniProt Q96L34)", "remaining signal": "68%"}
{"target": "Phosphatidylinositol 4,5-bisphosphate 3-kinase catalytic subunit alpha isoform (PIK3CA, Homo sapiens, UniProt P42336, E545A)", "remaining signal": "100%"}
{"data": "Study 3", "Structure (SMILES)": "O=C1c2ccccc2-c2nc3nnnn3nc21", "observed": "enzyme activity", "action": "inhibitor", "tested at": "0.5 µM", "reference": "control"}
{"target": "Fibroblast growth factor receptor 3 (FGFR3, Homo sapiens, UniProt P22607)", "remaining activity": "26.7%"}
{"target": "Serine/threonine-protein kinase ULK3 (ULK3, Homo sapiens, UniProt Q6PHR2)", "remaining activity": "103%"}
{"target": "Macrophage-stimulating protein receptor (MST1R, Homo sapiens, UniProt Q04912)", "remaining activity": "93.6%"}
{"target": "Tyrosine-protein kinase Lck (LCK, Homo sapiens, UniProt P06239)", "remaining activity": "70.5%"}
{"target": "Serine/threonine-protein kinase Nek6 (NEK6, Homo sapiens, UniProt Q9HC98)", "remaining activity": "96.3%"}
{"target": "Tyrosine-protein kinase FRK (FRK, Homo sapiens, UniProt P42685)", "remaining activity": "33.9%"}
{"target": "Rhodopsin kinase GRK7 (GRK7, Homo sapiens, UniProt Q8WTQ7)", "remaining activity": "78.1%"}
{"target": "Serine/threonine-protein kinase Nek1 (NEK1, Homo sapiens, UniProt Q96PY6)", "remaining activity": "46.3%"}
{"target": "Casein kinase I isoform gamma-3 (CSNK1G3, Homo sapiens, UniProt Q9Y6M4)", "remaining activity": "80.3%"}
{"target": "Angiopoietin-1 receptor (TEK, Homo sapiens, UniProt Q02763)", "remaining activity": "4.27%"}
{"target": "Mitogen-activated protein kinase kinase kinase 5 (MAP3K5, Homo sapiens, UniProt Q99683)", "remaining activity": "106%"}
{"target": "Serine/threonine-protein kinase TBK1 (TBK1, Homo sapiens, UniProt Q9UHD2)", "remaining activity": "87%"}
{"target": "Mitogen-activated protein kinase 3 (MAPK3, Homo sapiens, UniProt P27361)", "remaining activity": "87%"}
{"target": "Activin receptor type-1B (ACVR1B, Homo sapiens, UniProt P36896)", "remaining activity": "113%"}
{"data": "Study 4", "SMILES": "CC(C)S(=O)(=O)c1ccc2nccc(Nc3ccc4sc(C5CCCC5)nc4c3)c2c1.Cl", "observed": "kinase activity", "action": "inhibitor", "tested at": "1 µM"}
{"target": "Tyrosine-protein kinase SYK (SYK, Homo sapiens, UniProt P43405)", "remaining activity": "105%"}
{"target": "Tyrosine-protein kinase Tec (TEC, Homo sapiens, UniProt P42680)", "remaining activity": "102%"}
{"target": "Aurora kinase A (AURKA, Homo sapiens, UniProt O14965)", "remaining activity": "97%"}
{"target": "Mitogen-activated protein kinase 10 (MAPK10, Homo sapiens, UniProt P53779)", "remaining activity": "98%"}
{"note": "Repeated from above (study 3):"}
{"target": "Serine/threonine-protein kinase Nek1 (NEK1, Homo sapiens, UniProt Q96PY6)", "remaining activity": "46.3%"}
{"target": "Casein kinase I isoform gamma-3 (CSNK1G3, Homo sapiens, UniProt Q9Y6M4)", "remaining activity": "80.3%"}
{"target": "Angiopoietin-1 receptor (TEK, Homo sapiens, UniProt Q02763)", "remaining activity": "4.27%"}
{"target": "Mitogen-activated protein kinase kinase kinase 5 (MAP3K5, Homo sapiens, UniProt Q99683)", "remaining activity": "106%"}
